Measured values from different studies.
A part holds a random share of what one study measured.

Block 1
Target: Interferon regulatory factor 7, full length, phosphomimetic (IRF7, Homo sapiens, UniProt Q92985, residues 1-503, S101K/S471D/S472D/S475D/S476D/S477D/S483D/S484D/S487D)
Method: protein-binding microarray
Form: double-stranded DNA, one strand shown
Matrix: in vitro
Concentration: 250 nM
Setting: 60-bp whole probe
Added: salmon DNA 0.4 mg/ml
Relative to: random background probes
Reading: higher = stronger binding
Endpoint: log fluorescence
All sequences stand within: GCCTAGCAC … GTCTTGATTCGCTTGACGCTGCTG
Residues (chain): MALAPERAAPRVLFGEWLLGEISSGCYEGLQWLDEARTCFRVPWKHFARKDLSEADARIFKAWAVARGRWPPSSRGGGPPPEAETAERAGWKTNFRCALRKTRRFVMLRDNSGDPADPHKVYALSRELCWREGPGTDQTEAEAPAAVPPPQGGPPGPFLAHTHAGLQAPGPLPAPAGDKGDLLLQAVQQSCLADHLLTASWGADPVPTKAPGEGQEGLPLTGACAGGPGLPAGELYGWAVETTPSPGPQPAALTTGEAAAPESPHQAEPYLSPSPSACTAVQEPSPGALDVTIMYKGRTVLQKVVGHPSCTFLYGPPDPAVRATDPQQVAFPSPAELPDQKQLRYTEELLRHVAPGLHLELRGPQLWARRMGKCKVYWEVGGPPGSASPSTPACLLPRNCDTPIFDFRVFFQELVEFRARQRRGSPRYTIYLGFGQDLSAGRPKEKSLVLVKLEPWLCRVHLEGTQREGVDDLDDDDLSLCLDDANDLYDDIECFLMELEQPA
TTAGGACTGGACTATCGATTAGTGCTA: 0.0502 z-score
GACGGTATCGGTTTCGGGTCGTGCTAG: 10 z-score
GACGATTTCAGTTTTGAGACGTGCTAG: 0.758 z-score
TTAGGTATCGGGCTGGGTTAGTGCTAG: -0.245 z-score
GACTGTCTCGGTTTCGGGACGTGCTAG: 5.33 z-score
TATGAAATGGAAGTTTAGGGGTGCTAG: -0.299 z-score
CTTCCCCTCTCTTTCCAACTGTGCTAG: 1.89 z-score
GACGGTTTCGATTTTCGGGACGTGCTA: 13.4 z-score
TTTGGTTCCGGTTTCGGTTAGTGCTAG: 11.6 z-score
TCAACCATCCTATGTAGAACTGTGCTA: 0.232 z-score
GACGGTTTCGGTTCCGGGCCGTGCTAG: 11.9 z-score
GACGGTATCCTTCTCGTGACGTGCTAG: 0.309 z-score

Block 2
Target: Sal-like protein 4, full length isoform A (SALL4, Homo sapiens, UniProt Q9UJQ4, residues 1-1053)
Sequence of UniProt Q9UJQ4 (whole entry, looked up): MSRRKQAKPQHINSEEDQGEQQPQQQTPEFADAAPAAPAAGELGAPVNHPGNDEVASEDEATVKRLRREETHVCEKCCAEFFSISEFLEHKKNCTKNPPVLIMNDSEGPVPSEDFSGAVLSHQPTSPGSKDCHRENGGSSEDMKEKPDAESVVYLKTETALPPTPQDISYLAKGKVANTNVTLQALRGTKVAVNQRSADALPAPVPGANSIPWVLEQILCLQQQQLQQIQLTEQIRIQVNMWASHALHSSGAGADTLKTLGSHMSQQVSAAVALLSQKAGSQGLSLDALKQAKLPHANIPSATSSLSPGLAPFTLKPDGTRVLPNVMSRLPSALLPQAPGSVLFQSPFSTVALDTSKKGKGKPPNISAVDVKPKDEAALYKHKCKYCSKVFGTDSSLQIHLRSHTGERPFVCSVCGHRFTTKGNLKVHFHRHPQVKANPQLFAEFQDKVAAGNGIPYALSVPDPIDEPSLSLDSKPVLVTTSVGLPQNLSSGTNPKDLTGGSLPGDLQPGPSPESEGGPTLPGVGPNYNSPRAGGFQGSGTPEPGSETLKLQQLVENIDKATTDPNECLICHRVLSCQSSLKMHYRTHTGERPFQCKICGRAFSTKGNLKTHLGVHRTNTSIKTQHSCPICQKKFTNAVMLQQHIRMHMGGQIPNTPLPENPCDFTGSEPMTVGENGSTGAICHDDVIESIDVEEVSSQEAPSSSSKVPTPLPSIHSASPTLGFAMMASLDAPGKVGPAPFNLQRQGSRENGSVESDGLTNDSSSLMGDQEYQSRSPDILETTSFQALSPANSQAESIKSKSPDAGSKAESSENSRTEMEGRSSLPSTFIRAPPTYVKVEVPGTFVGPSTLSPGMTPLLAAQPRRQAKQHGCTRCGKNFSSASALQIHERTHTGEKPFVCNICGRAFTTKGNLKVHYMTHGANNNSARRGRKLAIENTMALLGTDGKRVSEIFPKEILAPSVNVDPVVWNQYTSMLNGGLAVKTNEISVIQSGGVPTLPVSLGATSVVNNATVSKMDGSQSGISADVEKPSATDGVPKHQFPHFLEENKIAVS
Method: universal PBM
Form: double-stranded DNA, one strand shown
Matrix: in vitro
Concentration: 600 nM
Setting: 8-mer, flanks averaged, mean of replicates
Reading: higher = stronger binding
Endpoint: E-score
ACAGCCGC: -0.32
AGATTGTG: 0.00519
GCTTTAAC: 0.0301
CTGGTTAC: -0.165
GGTTCGAC: -0.148
CAGTATGA: 0.227
ACGTCTAC: 0.0292
AGAGCTGG: -0.21
CCGCCGAA: -0.253
ATCCGAGG: -0.243
CTAGTTAC: -0.0804
CAGCAGCA: -0.105
TCGCTTAA: 0.112
CGAGGCGA: -0.259
AATCCCCA: -0.156
GTAAGATA: 0.301
ACGTTGGA: -0.12
TCCGGCCA: -0.268
GATCGTAC: -0.125
AGCAAAGC: 0.0801
AAGGATCA: 0.0535

Block 3
Target: Protein max, full length (MAX, Homo sapiens, UniProt P61244-2, residues 1-151)
Method: protein-binding microarray
Form: double-stranded DNA, one strand shown
Matrix: in vitro
Concentration: not given
Setting: k-mer, scored over probes, only values ≥0.25
Reading: higher = stronger binding
Endpoint: E-score
CGACATGC: 0.359
CGTGGTCC: 0.392
CGTGTGTC: 0.334
ATGTTAGA: 0.275
ACACGTGC: 0.495
CGTGTGAA: 0.263
ACGCAACA: 0.274
CAAACATG: 0.287
CAGCGCGG: 0.291
GGTGTGAC: 0.271
CGCGCAAC: 0.25
GTGCTCTA: 0.256
CACGCCCC: 0.353
GAAAGCAC: 0.267
AGCACCTG: 0.32

Block 4
Sequence: RRRRLLFWDKETQI
Form: peptide
Reading: direction not given
Endpoint: enrichment score
Saccharomyces cerevisiae; binding, competitive growth deep sequencing; cyclin E1-Cln2 fusion strain; peptide tiling library: -0.929
peptide binding; yeast competitive growth; added: B1-Cln2 chimera: -0.729
Cln2 (Saccharomyces cerevisiae); peptide binding, competitive growth sequencing; Saccharomyces cerevisiae, unfused Cln2 strain; peptide tiling library: -1.76

Other studies, line by line
PhoQ, residues 284 288 289 292 302 303 TYGVAM  fold induction (PhoP, residues 12 14 15 18 19 SYFRT (Escherichia coli, UniProt P23836); Sort-seq, refers to: YFP reporter; E. coli; PhoQ-PhoP variant library, added: 10 µM Mg2+; relative to: high Mg2+ state, higher = stronger signaling): 10.8

For quick reference, copied from above (block 3):
ACACGTGC: 0.495
GTGCTCTA: 0.256
CGACATGC: 0.359
ATGTTAGA: 0.275
CGTGTGAA: 0.263
CGTGGTCC: 0.392
CGCGCAAC: 0.25
